Measured values collected from several papers.
Every numbered part comes from another study and shows a few of its results, in no order. Substitutions count along the parent as printed.

Block 1
Target: CCNE1, cyclin fold, Cln2 fusion (human)
Method: yeast growth competition, sequencing
Medium: yeast
Notes: strong parent motif
Baseline: not given
Reading: higher = stronger binding
Parent: ASZ1 docking peptide (human); GFGFLLFICKLTF; partner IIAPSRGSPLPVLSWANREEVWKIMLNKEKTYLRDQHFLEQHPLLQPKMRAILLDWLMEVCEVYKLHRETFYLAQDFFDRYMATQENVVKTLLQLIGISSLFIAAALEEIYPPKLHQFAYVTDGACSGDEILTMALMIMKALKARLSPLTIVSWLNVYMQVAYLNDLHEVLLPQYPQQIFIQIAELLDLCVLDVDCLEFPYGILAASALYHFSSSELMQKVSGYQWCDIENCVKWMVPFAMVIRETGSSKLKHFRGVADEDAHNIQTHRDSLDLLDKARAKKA
Change | normalised enrichment score
GFGFLLFIAKLTF [C9A] | 1.68
GFGFLLFACKLTF [I8A] | 0.838
GFGFLLFICALTF [K10A] | 1.14
GFGFALFICKLTF [L5A] | 0.846
AFGFLLFICKLTF [G1A] | 1.39
GFGFLLFICKLTA [F13A] | 1.39

Block 2
Target: Sal-like protein 4, full length isoform B (SALL4, Homo sapiens, UniProt Q9UJQ4-2, residues 1-616)
Method: universal PBM
Form: double-stranded DNA, one strand shown
Medium: in vitro
Concentration: not given
Notes: 8-mer, flanks averaged, mean of replicates
Reading: higher = stronger binding
Oligonucleotide | E-score
ACTTCTAT | 0.166
CCCATGGA | -0.125
GCGGCGAC | -0.221
ATACTCCC | 0.0158
ATAATTTG | 0.394
CCCCCGGG | -0.437
ACACACGA | -0.0164
GGAAGCTA | -0.089
GATTAAAA | 0.32
CTAAGAAG | 0.157
CGGACTTC | -0.184
AAGGGTCT | -0.0251
GGTACTAA | -0.0321
GCAAGCGA | -0.0884
CAGTGTAA | 0.163
CAGGTTAA | 0.00298
CGTTCCAC | -0.0904
ATAACCTC | 0.226
GGCGGTTA | -0.153
TTTCGAAA | 0.258
AATAGCCG | -0.00907
CAGCAACA | 0.134
TCCCCCGA | -0.206

Block 3
Target: Interferon regulatory factor 7, full length, phosphomimetic (IRF7, Homo sapiens, UniProt Q92985, residues 1-503, S101K/S471D/S472D/S475D/S476D/S477D/S483D/S484D/S487D)
Method: protein-binding microarray
Form: double-stranded DNA, one strand shown
Medium: in vitro
Concentration: 250 nM
Notes: 60-bp whole probe
Together with: salmon DNA 0.4 mg/ml
Baseline: random background probes
Reading: higher = stronger binding
Shared flanks, not repeated: GCCTAGCAC … GTCTTGATTCGCTTGACGCTGCTG
Target sequence (chain): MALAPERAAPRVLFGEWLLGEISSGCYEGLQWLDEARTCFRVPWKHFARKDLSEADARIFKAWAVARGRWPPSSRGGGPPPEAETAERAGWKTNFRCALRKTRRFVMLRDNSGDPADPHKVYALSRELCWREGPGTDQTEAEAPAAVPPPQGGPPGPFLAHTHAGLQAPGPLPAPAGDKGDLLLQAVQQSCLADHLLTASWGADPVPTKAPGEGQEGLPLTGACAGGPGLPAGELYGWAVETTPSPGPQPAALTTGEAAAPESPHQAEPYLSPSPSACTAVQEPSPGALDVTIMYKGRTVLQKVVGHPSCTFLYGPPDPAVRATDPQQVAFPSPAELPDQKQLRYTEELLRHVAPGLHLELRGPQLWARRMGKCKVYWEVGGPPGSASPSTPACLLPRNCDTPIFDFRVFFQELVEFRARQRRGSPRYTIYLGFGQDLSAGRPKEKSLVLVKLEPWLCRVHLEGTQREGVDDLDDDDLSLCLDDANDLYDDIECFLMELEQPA
Oligonucleotide | log fluorescence
GATGATTTCAGTCTCGAGACGTGCTAG | 0.278 z-score
TTAGAAATGAGTATCGATTAGTGCTAG | 0.811 z-score
TGTGCTTTCCTGATGGTCCTGTGCTAG | 0.546 z-score
TCAACTTTAGGTTCCCAACTGTGCTAG | 0.419 z-score
GACGGTCTCGGTTTCGGGAGGTGCTAG | 7.26 z-score
GACGGACTGCTTCTCCTCACGTGCTAG | 0.127 z-score
GAGGGTATCGGGTTTCGGGACGTGCTA | 2.72 z-score
GACGGTACCGGTTTCGGGACGTGCTAG | 4.23 z-score
GACGGTTTCCTTCTCTTGACGTGCTAG | 3.04 z-score
GACGGTCTCGGTATCGGGAGGTGCTAG | 1.71 z-score
AAGACTTTGCTCTGTGCATAGGTGCTA | -0.488 z-score
TCATCTTTCACTGCTCCCACTGTGCTA | 0.815 z-score
TTAGAGTCCAGTTTCGATTAGTGCTAG | 8.23 z-score
TTAAGACTGGACTATCGGTTAGTGCTA | -0.209 z-score
TTAAAACTGAGACTGGATTAGTGCTAG | -0.0764 z-score
TTAGATTTCGGGTTTCGATAAGTGCTA | 4.54 z-score
GACGGTAACGGACTGGGGACGTGCTAG | -0.23 z-score

Block 4
Target: Histone acetyltransferase KAT6A, both winged helices, GST fusion (KAT6A, Homo sapiens, UniProt Q92794, residues 1-181)
Method: protein binding microarray
Form: double-stranded DNA, one strand shown
Medium: in vitro
Concentration: not given
Notes: 8-mer, flanks averaged, mean of 2 arrays, mostly near background
Baseline: not given
Reading: higher = stronger binding
Target sequence (chain): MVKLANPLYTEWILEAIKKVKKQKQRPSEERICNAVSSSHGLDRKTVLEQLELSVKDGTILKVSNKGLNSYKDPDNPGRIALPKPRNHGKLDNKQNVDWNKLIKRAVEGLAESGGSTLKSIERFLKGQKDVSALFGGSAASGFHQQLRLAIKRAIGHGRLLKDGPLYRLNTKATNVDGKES
Oligonucleotide | E-score
GACACTCA | 0.103
AGTCTTCA | -0.22
AATGACCC | -0.0256
AGTAGCTC | -0.102
AGATCAAC | -0.198
GGTAATTA | 0.00694
ACACTGCG | 0.2
AGCTTGGG | -0.253
ACTAGAAT | -0.0858
CGAGTATA | -0.0358
AACCTACC | -0.207
AACCTCCC | -0.011
CCATATAA | -0.136

Block 5
Partner: PHB2 (Homo sapiens, UniProt Q99623)
Method: cross-linking MS
Medium: cell fractions
Together with: DSSO
Substance | cross-linked residues
ATR (Homo sapiens, UniProt Q13535) | S2313 to K250
CYCS (Homo sapiens, UniProt P99999) | K40 to K262
GAPDH (Homo sapiens, UniProt P04406) | K263 to K296

Block 6
Target: ABI1, truncated, D143A, DHFR fusion (Arabidopsis thaliana)
Method: DHFR PCA, deep sequencing
Medium: yeast
Notes: methotrexate growth selection, single substitutions
Together with: (+)-ABA 0.032 µM
Baseline: wild-type fitted maximum
Reading: higher = stronger binding
Parent: PYL1, truncated, DHFR fusion (Arabidopsis thaliana); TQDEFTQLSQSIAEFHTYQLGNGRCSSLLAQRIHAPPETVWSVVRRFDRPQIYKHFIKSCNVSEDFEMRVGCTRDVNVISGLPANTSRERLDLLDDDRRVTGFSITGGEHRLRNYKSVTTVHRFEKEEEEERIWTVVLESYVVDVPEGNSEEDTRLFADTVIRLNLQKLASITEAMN
Change | relative binding score
T135N | -5.07%
G81L | 6.05%
E4S | 9.7%
S59W | 2.71%
F66L | 1.78%
G71P | 6.98%
A175W | 0.76%
V43L | 15.7%
S11I | 25.3%
R132A | 41.4%
F157N | 2.63%
T106V | 75%
Q31D | 2.77%
F5H | 6.69%
D3F | 21.3%
H16R | -1.91%
P83F | 2.86%
Q7P | 4.5%
